Results collected from several papers.
Target: 5-hydroxytryptamine receptor 2A (HTR2A, Homo sapiens, UniProt P28223)
UniProt P28223, sequence (whole entry, looked up): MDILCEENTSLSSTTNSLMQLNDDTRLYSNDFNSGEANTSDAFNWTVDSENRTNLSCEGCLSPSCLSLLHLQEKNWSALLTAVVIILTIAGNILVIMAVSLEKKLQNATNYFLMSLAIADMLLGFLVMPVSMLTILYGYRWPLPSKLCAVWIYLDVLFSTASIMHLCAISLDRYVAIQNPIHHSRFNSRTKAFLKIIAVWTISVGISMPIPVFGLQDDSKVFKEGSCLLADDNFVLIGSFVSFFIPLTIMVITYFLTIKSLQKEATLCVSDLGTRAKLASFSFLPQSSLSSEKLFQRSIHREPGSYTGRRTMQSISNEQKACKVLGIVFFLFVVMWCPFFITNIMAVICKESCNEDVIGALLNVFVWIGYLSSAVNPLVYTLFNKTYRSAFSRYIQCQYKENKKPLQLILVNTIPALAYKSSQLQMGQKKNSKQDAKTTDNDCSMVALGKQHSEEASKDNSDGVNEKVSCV

| Structure (SMILES) | test | setting | quantity | result |
| --- | --- | --- | --- | --- |
| O=C(O)CCn1c(=O)oc2cc(Cl)c(Cl)cc21 | agonist |  | EC50 | > 25100 nM |
| O[C@H]1[C@H](n2cnc3c(N[C@@H](C4CCC4)C4CC4)nc(I)nc32)[C@H]2C[C@@]2(C(F)F)[C@H]1O | calcium signal, antagonist |  | Kb | > 10000 nM |
| COc1c(O)cc2c3c1-c1ccccc1CC3N(C)CC2 (centres unmarked) | ligand displacement, radioligand | cell membranes | Ki | 60 nM |
| C[C@@H](Cc1ccsc1)NC(=O)NC[C@H](Cc1ccc(O)cc1)N(C)C | cell-free assay |  | Ki | 580 nM |
| O=C1c2ccccc2CCCN1CCCCN1CCN(c2cccc(Cl)c2Cl)CC1 | ligand displacement, radioligand |  | Ki | 24 nM |
| CCN(CC)C(=O)[C@@H]1C=C2c3cccc4c3c(cn4C(=O)c3ccco3)C[C@H]2N(C)C1 | ligand displacement, radioligand |  | Ki | 225 nM |
| COc1cc2c(cc1O)C(CCc1ccc(Cl)cc1)N(C)CC2 (centres unmarked) | cell-free assay, radioligand |  | Ki | 880 nM |
| C/C(=N\OCCCN1CCCCC1)c1ccc(C(F)(F)F)cc1 | inositol phosphate, antagonist |  | IC50 | 1620 nM |
